# Experimental data from different studies.
# ± gives the spread as reported.
Structure (SMILES),assay,test system,conditions,measured concentration [ng/mL]
C[N+](C)(C)CC(CC(=O)[O-])OC(=O)CCC(=O)Nc1ccn([C@@H]2O[C@H](CO)[C@@H](O)C2(F)F)c(=O)n1 (stereo partly shown),,THU-treated rat plasma,"125.00 ng/mL, -80 to 20 °C, three freeze-thaw cycles, mid QC",109 ± 1.4
Cc1[nH]c(/C=C2\C(=O)Nc3ccc(F)cc32)c(C)c1NC(=O)CCN1CCN(C)CC1,,dog plasma,"80 ng/mL nominal, 24 h, 25 °C, processed samples at room temperature",74.8
COc1ccc([C@@H]2CC(=O)c3c(O)cc(O[C@@H]4O[C@H](CO[C@@H]5O[C@@H](C)[C@H](O)[C@@H](O)[C@H]5O)[C@@H](O)[C@H](O)[C@H]4O)cc3O2)cc1O,,rat plasma,"15.62 ng/mL, 12 h, room temperature, autosampler stability",16.9 ± 0.23
"CNC(=O)N[C@]1(C)CCC[C@@]2(C)C3CC[C@@]4(C)C[C@]3(CCC21)CC4=O (single isomer, unassigned)",,rat plasma,"400 ng/mL, freeze-thaw stability, three cycles",403 ± 5.15
Oc1ccc2ccccc2c1/N=N/c1ccccc1,,rat whole blood extract,"0.5 µg/L, 30 days, -20 °C, long-term storage",0.504
COc1ccnc(C[S+]([O-])c2nc3cc(-n4cccc4)ccc3[nH]2)c1C (stereo not shown),,rat plasma in autosampler,"250 ng/mL, 24 h, 4 °C",238
COC(=O)C(c1ccccc1Cl)N1CCC2SC(=O)C=C2C1 (stereo not shown),LC-MS/MS,human plasma,"2 ng/mL, after freeze-thaw cycles",1.9 ± 0.2
COc1ccc(-c2cc(=O)c3c(O)cc(O[C@@H]4O[C@H](CO[C@@H]5O[C@@H](C)[C@H](O)[C@@H](O)[C@H]5O)[C@@H](O)[C@H](O)[C@H]4O)cc3o2)cc1,short-term stability,rat plasma,"8 h, room temperature, medium QC level",755 ± 10.8
Cc1ccc(/N=N/c2c(O)ccc3ccccc23)c(C)c1,,extracted rat blood QC samples,"0.2 µg/L, 8 h, room temperature, short-term stability",0.224
COC(=O)C(c1ccccc1Cl)N1CCC(SCC(=O)c2cccc(OC)c2)C(=CC(=O)O)C1 (stereo not shown),LC-MS/MS,human plasma,"50 ng/mL, 8 h, room temperature",51.1 ± 4.9

# Repeated from above:
Structure (SMILES),assay,test system,conditions,measured concentration [ng/mL]
COc1ccc([C@@H]2CC(=O)c3c(O)cc(O[C@@H]4O[C@H](CO[C@@H]5O[C@@H](C)[C@H](O)[C@@H](O)[C@H]5O)[C@@H](O)[C@H](O)[C@H]4O)cc3O2)cc1O,,rat plasma,"15.62 ng/mL, 12 h, room temperature, autosampler stability",16.9 ± 0.23
